Results of several laboratories.
Numbered parts are unrelated; each lists some results of a single study.

Sample 1 — method: protein binding microarray; molecule type: double-stranded DNA, one strand shown; matrix: in vitro; concentration: not given; reference: not given; reading: higher = stronger binding
Target: Histone acetyltransferase KAT6A, winged helix 1, GST fusion (KAT6A, Homo sapiens, UniProt Q92794, residues 1-85)
Notes: 8-mer, flanks averaged, mean of 2 arrays, mostly near background
Residues (chain): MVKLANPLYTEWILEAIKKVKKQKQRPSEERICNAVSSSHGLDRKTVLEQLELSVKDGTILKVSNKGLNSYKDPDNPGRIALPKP
Strand	E-score
TCCGCCCA	-0.0564
ATTCCGTG	0.155
GTAGTCCA	-0.026
AACCGGAG	0.137
ATCCAGGG	-0.0571
ATTGATCG	0.0167

Sample 2 — method: RNA Bind-n-Seq; molecule type: RNA; matrix: in vitro; concentration: 365 nM; reference: no-protein control; reading: higher = stronger binding
Target: RNA binding protein fox-1 homolog 2, RRM domain, GST-SBP tag (RBFOX2, Homo sapiens, UniProt O43251-10, residues 100-194)
Notes: natural RNA segment, single round, ends assumed
All sequences stand within: GGGAGUUCUACAGUCCGACGAUC … UGGAAUUCUCGGGUGCCAA
Construct (chain): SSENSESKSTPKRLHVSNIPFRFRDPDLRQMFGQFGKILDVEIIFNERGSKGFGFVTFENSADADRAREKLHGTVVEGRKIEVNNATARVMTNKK
Strand	RBNS enrichment (R)
UUAAAGAUAAUGCUUUUUAUUUACACGAAUAUAUCAAGUAGUACCCUCCUAUUGUAUUCACUUCUUCUAUUUUCUUAGAAUUCUUGCAACUAAUGAUUGUUCCCCUCCUU	0.577
AAUGGUUAAACUAAAGAGCUUCUGCACAGCAAAAGAAACUACCAUCAGAGUGAACAGGCAACCUACAACAUGGGAGAAAAUUUUCGCAACCUACUCAUCUGACAAAGGGC	0.3
UCCAUCCCACCUUUUCCUUCCACUGCCCAAUCACAGCCUCUAGCCUUUAUUUGACCAGUUAAAAUGGGCAAAAGGUUCACAUGCUGUCACCUGAGCACAUGGUCUACUGC	0.458
UACUUUCCUGCAAAAUUUUCUUCAAAGCAACAAGUCCUAGGAGCACACAAAGCAACCCAAAGGCUUUUCCCUGGAAAAGCUCUUUCUUACCUAAAGAUAAAACCAAUUCA	0.321
UCCUGUAAUGCUGCUGCCCCUCCUUCCUGGGCAGCUCUACUGGGGAGAUGAGAAGCUCUUGAUCCAAUCCCUGUGCAGCAUCAAGAAGCCCAGGAAGCUGGCCCAGGCCU	0.472
UCUUCAUGUUUCUUCUUUGUAUAUUUGGUGACUGUAUUGUCAUAGAUGUACAUAUCGUGUCGGUAGGGCUAUGAGGCAUGUUACAGGAAUGUAAUUUUCUCAGAAUUUAC	0.303
AACUGCAGGUCAUCCUCGCAUCAGCCAAGGCUGUGGUGCUGUUGAUGCCGCAGUUGGACAGCAUAGGACGGCUUGGUUCUGUUUCAUUGUGUUUGACAAUGUUGCAGUUU	0.295

Sample 3 — method: universal PBM; molecule type: double-stranded DNA, one strand shown; matrix: in vitro; concentration: not given; reading: higher = stronger binding
Target: Sal-like protein 4, full length isoform B (SALL4, Homo sapiens, UniProt Q9UJQ4-2, residues 1-616)
Notes: 8-mer, flanks averaged, mean of replicates
Residues (chain): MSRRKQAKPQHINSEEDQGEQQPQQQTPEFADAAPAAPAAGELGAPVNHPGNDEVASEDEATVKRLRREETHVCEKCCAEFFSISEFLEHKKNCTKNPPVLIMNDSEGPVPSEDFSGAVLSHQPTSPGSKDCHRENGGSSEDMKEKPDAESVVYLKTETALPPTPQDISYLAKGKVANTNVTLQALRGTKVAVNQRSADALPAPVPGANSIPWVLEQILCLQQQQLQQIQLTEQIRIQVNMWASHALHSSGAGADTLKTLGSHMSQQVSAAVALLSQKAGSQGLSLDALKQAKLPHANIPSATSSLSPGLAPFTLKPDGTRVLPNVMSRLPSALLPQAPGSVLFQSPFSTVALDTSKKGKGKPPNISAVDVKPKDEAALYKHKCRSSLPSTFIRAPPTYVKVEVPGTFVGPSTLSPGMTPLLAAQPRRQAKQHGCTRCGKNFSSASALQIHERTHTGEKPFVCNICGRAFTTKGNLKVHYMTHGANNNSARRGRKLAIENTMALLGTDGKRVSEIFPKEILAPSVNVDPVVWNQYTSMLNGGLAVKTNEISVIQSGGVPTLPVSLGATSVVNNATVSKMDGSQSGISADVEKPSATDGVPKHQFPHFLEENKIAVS
Strand	E-score
AGGGGCAG	-0.236
AAGGTCAT	0.0655
AGACTTAA	-0.0189
CTATGACA	0.122
CGCCAAAC	-0.102
CAGCACTA	-0.0458
GACCTATC	-0.0758

Further values, each from its own experiment
Substance	target	assay	test system	setting	how to read	endpoint	value
PhoQ, residues 284 288 289 292 302 303 SNGLAW	PhoP, residues 12 14 15 18 19 SMASL (Escherichia coli, UniProt P23836)	Sort-seq, refers to: YFP reporter	E. coli	PhoQ-PhoP variant library, together with: 10 µM Mg2+	reference: high Mg2+ state, higher = stronger signaling	fold induction	10.2

Some of these lines once more (sample 2):
Strand	RBNS enrichment (R)
AAUGGUUAAACUAAAGAGCUUCUGCACAGCAAAAGAAACUACCAUCAGAGUGAACAGGCAACCUACAACAUGGGAGAAAAUUUUCGCAACCUACUCAUCUGACAAAGGGC	0.3
UCCAUCCCACCUUUUCCUUCCACUGCCCAAUCACAGCCUCUAGCCUUUAUUUGACCAGUUAAAAUGGGCAAAAGGUUCACAUGCUGUCACCUGAGCACAUGGUCUACUGC	0.458
UACUUUCCUGCAAAAUUUUCUUCAAAGCAACAAGUCCUAGGAGCACACAAAGCAACCCAAAGGCUUUUCCCUGGAAAAGCUCUUUCUUACCUAAAGAUAAAACCAAUUCA	0.321
